Results of several laboratories.
Parts stem from different laboratories: compare values within a part only. Changes are numbered by the printed parent chain.
Chain of UniProt P42338 (whole entry, looked up): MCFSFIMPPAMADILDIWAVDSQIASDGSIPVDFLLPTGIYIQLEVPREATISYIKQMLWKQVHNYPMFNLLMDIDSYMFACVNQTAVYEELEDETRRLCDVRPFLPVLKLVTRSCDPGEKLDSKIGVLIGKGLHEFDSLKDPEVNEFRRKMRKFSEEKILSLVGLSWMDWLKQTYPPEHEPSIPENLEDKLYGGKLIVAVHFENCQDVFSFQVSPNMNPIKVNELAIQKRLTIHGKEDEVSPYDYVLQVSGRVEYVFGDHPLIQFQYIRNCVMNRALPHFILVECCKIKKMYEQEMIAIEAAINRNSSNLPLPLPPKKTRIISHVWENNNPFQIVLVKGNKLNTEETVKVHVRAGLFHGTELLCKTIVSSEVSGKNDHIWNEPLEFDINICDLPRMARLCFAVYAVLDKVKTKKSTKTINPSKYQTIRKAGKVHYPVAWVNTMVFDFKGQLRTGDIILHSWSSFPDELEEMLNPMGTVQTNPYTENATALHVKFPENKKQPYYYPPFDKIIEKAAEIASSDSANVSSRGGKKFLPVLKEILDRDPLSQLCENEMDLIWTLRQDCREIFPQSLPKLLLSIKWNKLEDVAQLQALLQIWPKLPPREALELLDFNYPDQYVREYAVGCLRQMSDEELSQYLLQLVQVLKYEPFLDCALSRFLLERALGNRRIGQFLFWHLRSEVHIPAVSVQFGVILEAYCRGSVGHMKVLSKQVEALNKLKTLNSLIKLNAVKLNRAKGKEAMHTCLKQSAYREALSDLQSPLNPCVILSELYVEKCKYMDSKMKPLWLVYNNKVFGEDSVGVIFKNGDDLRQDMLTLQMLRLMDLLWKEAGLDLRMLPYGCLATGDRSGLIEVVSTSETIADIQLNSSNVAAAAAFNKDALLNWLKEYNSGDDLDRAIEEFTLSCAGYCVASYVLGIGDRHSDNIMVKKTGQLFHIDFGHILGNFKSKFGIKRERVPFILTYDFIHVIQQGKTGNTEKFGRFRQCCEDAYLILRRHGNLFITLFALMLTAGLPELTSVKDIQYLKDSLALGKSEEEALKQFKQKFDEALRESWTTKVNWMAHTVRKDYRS

Set 1
Target: CCNB1, cyclin fold, Cln2 fusion (human)
Technique: yeast growth competition, sequencing
Matrix: yeast
Setting: strong parent motif
Baseline: not given
Direction: higher = stronger binding
Starting sequence: E2F1 docking peptide (human); PPVKRRLDLETDH; partner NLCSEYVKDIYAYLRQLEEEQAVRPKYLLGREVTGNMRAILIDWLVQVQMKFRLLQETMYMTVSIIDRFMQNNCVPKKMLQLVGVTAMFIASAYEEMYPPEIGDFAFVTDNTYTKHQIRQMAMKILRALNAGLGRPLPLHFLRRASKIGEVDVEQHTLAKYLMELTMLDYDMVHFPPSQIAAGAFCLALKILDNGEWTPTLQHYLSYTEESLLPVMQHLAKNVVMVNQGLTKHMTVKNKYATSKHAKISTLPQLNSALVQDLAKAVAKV
| Change | normalised enrichment score |
| --- | --- |
| D8Y | 1.08 |
| D8K | 1.03 |
| V3Q | 1.12 |
| D8S | 1.21 |
| E10T | 0.884 |
| P1G | 1.29 |
| V3R | 0.51 |
| K4T | 0.338 |

Set 2
Target: Phosphate system positive regulatory protein PHO4, full length, GST-tagged (PHO4, Saccharomyces cerevisiae, UniProt P07270, residues 1-312)
Technique: competition protein-binding microarray
Form: double-stranded DNA, one strand shown
Matrix: in vitro
Concentration: 2 µM
Setting: whole 60-bp probe, lowest competitor level
With: Cbf1 competitor, 0.05 µM
Direction: higher = stronger binding
All sequences stand within: … GTCTTGATTCGCTTGACGCTGCTG
Construct (chain): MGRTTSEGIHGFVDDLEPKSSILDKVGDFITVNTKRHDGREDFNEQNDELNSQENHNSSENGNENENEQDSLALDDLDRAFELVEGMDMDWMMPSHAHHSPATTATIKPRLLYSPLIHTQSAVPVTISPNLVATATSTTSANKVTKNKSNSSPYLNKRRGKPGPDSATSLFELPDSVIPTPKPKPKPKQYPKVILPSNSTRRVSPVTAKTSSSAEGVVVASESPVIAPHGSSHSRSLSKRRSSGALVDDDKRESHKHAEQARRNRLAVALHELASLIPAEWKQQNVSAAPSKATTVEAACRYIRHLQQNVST
| Strand | fluorescence intensity [a.u.] |
| --- | --- |
| CTTTCCCGATCTTGCCTTGTGGGTGTAGCACATTTG | 5100 |
| AGCAGCAATCCGCTGGACGTGGGTAAGTTGAAAGTT | 5280 |
| CGGGGTTAAGTTTGGATGGTGGGTGGCTTGCAGCAG | 4950 |
| TAACCTTTAAGCCGTCACAAATAAATAGCCTTGTTG | 3240 |
| TGTTCTTATGGCTTGCATGTGCTCTGTATGTATATA | 12600 |
| CGGGGTTAAGTTTGTCACGTTACTTGCTTGCAGCAG | 7840 |
| AGATTAGTCTATTTGACCGTGCCGATTTTGCACTTT | 6110 |
| CTTTGAGCACCACTCCACGTGGGCGCAGGCGCAGCG | 16600 |

Set 3
Target: RNA binding protein fox-1 homolog 2, RRM domain, GST-SBP tag (RBFOX2, Homo sapiens, UniProt O43251-10, residues 100-194)
Technique: RNA Bind-n-Seq
Form: RNA
Matrix: in vitro
Concentration: 365 nM
Setting: natural RNA segment, single round, ends assumed
Baseline: no-protein control
Direction: higher = stronger binding
All sequences stand within: GGGAGUUCUACAGUCCGACGAUC … UGGAAUUCUCGGGUGCCAA
Target sequence (chain): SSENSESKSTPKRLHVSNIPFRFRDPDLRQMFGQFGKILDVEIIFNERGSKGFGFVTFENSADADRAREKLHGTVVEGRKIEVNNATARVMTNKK
| Strand | RBNS enrichment (R) |
| --- | --- |
| CUGCCUUGGUUCCUACCACUCUGGUGUAGACAGAGGACUUUGUCCAAGUCUCACACUAAACAUGCCCGGGCUUCGAUGUGCCUGGAGGAUUUCCCCACAGGGACCCACGC | 0.285 |
| CCUGCUCCUCCACCCCCUCCCAUCACUAUCCAUAGAAUCAGUGGUGCAGGACCGAAAGCCAGACUCAGCCCCUUGUCUCCCUGCACCUGUCCCACUUGACAUUUUUUAAC | 0.785 |
| ACUGUAUUAAUAAACAUACAACACAAGCUGGCCUUGUGUUGCUGGUUCCUAUUCAGUAUUUCCUGGGGAUUGUUUGCUUUUUAAGUAAAACACUUCUGACCCAUAGCUCA | 0.177 |
| UGGGCUUCUAAAUCAAAAGCCUGAUGUUCGUGUCCCUCUCAUAGGGGGAGCUUUGGACACAGGACCAGUUUGGAAAAGGGUCAGGUAAGGGUUUCCACUCUGCACAUUGU | 0.449 |
| UCCCAUCCCCUGAGCAUCUUUUCGUAUUUAGAUUUGUCUCUGUUAAAAUGAUGAAACGGAAAUCGGUCCUGUCGUCUUGUUAGCAUGAUUCAUGUAUUUAUAUAGAUCCG | 0.455 |
| GGUAGAGAAGGAAAGGCUGUCCCCGACAGCAGCCAGAAGUCUGUGGGAGUGAGGUCAUUCCUGACCCGUGAUGCUUUCAAGGCUUGGUUUUUCUGAUAAUUAUUUUUGCC | 0.642 |
| UUUAGUGGUGAAUACCAAGAUUCAGUGCAUCCUUUAAAAGAGCGUUCUUGUCCCUGGCGCUGGCUAAAAAUAGCUCGUUUCCAGAUGCUUUUGUAGAUGACUGAAGUAUU | 0.579 |
| UUUCUACAUCACAGGUCUCUCCCAGGGCUCGUUUUCCAAUCUCCAUCACUAGUCCUUACAGAACAGGAGCCAGAACUCUGGCAGACAUCAAAGCAAAAGCCCAGUUGGUC | 0.247 |

Single results of other studies
| SMILES | target | read-out | technique | concentration | quantity | value |
| --- | --- | --- | --- | --- | --- | --- |
| C[C@@H](c1cccc(C#N)c1)n1cc(Cl)cc(C(N)=O)c1=N | Phosphatidylinositol 4,5-bisphosphate 3-kinase catalytic subunit beta isoform (PIK3CB, Homo sapiens, UniProt P42338) | cell-free assay | competition with immobilised ligand | 1 µM | remaining binding | 93% |

A few entries again (set 1):
| Change | normalised enrichment score |
| --- | --- |
| D8K | 1.03 |
| D8Y | 1.08 |
| V3Q | 1.12 |
